Experimental data from different studies.
Lines come from different studies, so protocols differ. Values joined by “and” are separate records of one study, mostly repeats; a detail may differ. ± gives the spread as reported.

For `CCN(CC)CC#CCNc1ccnc2cc(Cl)ccc12`, the revertants was 76 revertants/well and 71 revertants/well (Salmonella typhimurium; mini-Ames test; TA102; 250.0 µg/well, without S9).
`COC(=O)Nc1nc2cc(C(O)c3ccc(F)cc3)ccc2[nH]1` (stereo not drawn) has a revertants of 22 revertants/plate (Salmonella typhimurium; Ames preincubation test; TA98; 54.7 µg/plate, without S9).
For `CC(C)OCCOCc1ccc(OCC(O)CN(N=O)C(C)C)cc1` (stereo not drawn), “revertant fold increase” read 0.2 fold (Salmonella typhimurium; Ames test; TA98; 5000 µg/plate, without metabolic activation; relative to: solvent control).
The selectivity index of `CCN(CC)C(=O)CC(NC(=O)CCc1ccccc1)C(=O)NC(Cc1ccc(F)cc1)C(=O)NC(Cc1ccc(F)cc1F)C(=O)C1(C)CO1` (stereo not drawn) is reported as 64 (Trypanosoma brucei brucei; HepG2 cells, Lister 427; relative to: HepG2 CC50 over T. brucei EC50).
For `O=C1C2CC3CC1CC(C(=O)N1CCN(c4ccc([N+](=O)[O-])c5ncccc45)CC1)(C3)C2`, “revertant colony count” read 1 colonies/well (Salmonella typhimurium; Ames test; TA1535; 0.05 µg/well, without S9 activation).
For `CCCCCC(=O)N[C@H](C(=O)N[C@@H](CCCC)C(=O)N[C@@H](CC(C)C)C(=O)[C@@]1(C)CO1)C(C)C`, the selectivity index was < 1 (Trypanosoma brucei brucei; HepG2 cells, Lister 427; relative to: HepG2 CC50 over T. brucei EC50).
`Nc1nc2cc(C(=O)c3ccc(F)cc3)ccc2[nH]1` has a revertants of 14 revertants per plate (Salmonella typhimurium; Ames preincubation test; TA1537; 9.8 µg per plate, 3 days, without S9).
For `CCCCCC(=O)N[C@@H](Cc1ccc(NC(=O)OC(C)(C)C)cc1)C(=O)N[C@@H](CCCC)C(=O)N[C@@H](CC(C)C)C(=O)[C@@]1(C)CO1`, the selectivity index was < 1 (Trypanosoma brucei brucei; HepG2 cells, Lister 427; relative to: HepG2 CC50 over T. brucei EC50).
`O=C1NC2(CC2)COc2ncc(F)cc2[C@H]2COCCN2c2ccn3ncc1c3n2` gave a revertant colonies of 65 ± 12 revertants/plate (Salmonella typhimurium; Ames test; TA100; 5000 µg/plate, 48 h, together with: without S9).

For quick reference, copied from above:
`O=C1NC2(CC2)COc2ncc(F)cc2[C@H]2COCCN2c2ccn3ncc1c3n2` gave a revertant colonies of 65 ± 12 revertants/plate (Salmonella typhimurium; Ames test; TA100; 5000 µg/plate, 48 h, together with: without S9).
